Assay results of several laboratories.
A part holds a random share of what one study measured.
Sequence of UniProt Q02156 (whole entry, looked up): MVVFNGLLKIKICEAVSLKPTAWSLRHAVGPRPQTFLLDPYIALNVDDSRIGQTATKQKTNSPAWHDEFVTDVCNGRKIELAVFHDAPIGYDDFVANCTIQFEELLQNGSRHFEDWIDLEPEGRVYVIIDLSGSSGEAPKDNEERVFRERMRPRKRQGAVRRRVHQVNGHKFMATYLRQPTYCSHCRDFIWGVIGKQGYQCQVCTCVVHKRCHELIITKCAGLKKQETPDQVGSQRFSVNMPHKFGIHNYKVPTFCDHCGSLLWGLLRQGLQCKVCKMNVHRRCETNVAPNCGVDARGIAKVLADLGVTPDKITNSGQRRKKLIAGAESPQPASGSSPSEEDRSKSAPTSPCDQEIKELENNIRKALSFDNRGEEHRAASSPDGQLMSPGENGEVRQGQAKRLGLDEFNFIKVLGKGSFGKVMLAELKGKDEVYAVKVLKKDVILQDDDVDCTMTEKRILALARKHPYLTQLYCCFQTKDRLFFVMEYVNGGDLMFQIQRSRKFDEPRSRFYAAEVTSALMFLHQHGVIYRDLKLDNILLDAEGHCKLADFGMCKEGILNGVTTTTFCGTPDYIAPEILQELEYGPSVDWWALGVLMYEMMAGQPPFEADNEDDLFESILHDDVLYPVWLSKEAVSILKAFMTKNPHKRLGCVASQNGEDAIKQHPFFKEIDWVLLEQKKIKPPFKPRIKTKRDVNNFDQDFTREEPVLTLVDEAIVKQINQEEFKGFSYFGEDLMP
Sequence of UniProt O14920 (whole entry, looked up): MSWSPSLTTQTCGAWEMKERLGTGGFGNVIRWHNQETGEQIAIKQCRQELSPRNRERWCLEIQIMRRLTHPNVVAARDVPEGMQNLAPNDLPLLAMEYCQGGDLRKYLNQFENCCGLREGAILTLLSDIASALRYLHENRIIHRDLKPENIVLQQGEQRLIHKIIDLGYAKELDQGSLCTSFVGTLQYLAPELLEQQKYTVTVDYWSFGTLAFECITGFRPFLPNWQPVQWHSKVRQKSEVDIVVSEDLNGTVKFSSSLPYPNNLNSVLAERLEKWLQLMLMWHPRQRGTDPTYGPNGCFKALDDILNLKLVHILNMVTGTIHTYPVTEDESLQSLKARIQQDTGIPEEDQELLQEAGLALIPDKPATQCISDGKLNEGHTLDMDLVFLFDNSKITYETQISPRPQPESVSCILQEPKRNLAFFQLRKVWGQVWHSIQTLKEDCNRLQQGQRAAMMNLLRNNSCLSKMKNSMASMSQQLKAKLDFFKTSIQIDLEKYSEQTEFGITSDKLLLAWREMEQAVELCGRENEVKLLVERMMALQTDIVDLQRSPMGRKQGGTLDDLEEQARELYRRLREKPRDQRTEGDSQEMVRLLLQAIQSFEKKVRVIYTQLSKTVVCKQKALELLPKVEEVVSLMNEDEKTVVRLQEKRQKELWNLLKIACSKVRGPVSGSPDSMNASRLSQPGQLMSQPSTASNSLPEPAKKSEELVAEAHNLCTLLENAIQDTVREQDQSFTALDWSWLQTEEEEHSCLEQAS
Sequence of UniProt Q9UEE5 (whole entry, looked up): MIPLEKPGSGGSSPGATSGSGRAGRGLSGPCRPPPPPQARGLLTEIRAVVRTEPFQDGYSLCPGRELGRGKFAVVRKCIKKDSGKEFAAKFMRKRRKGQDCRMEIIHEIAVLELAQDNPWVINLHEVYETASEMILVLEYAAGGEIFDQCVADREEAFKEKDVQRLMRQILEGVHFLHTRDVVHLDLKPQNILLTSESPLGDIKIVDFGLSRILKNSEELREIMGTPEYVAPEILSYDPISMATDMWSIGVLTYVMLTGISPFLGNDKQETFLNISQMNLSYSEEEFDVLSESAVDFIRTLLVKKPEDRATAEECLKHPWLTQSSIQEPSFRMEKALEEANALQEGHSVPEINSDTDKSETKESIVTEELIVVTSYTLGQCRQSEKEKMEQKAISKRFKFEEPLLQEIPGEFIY
Sequence of UniProt Q6DT37 (whole entry, looked up): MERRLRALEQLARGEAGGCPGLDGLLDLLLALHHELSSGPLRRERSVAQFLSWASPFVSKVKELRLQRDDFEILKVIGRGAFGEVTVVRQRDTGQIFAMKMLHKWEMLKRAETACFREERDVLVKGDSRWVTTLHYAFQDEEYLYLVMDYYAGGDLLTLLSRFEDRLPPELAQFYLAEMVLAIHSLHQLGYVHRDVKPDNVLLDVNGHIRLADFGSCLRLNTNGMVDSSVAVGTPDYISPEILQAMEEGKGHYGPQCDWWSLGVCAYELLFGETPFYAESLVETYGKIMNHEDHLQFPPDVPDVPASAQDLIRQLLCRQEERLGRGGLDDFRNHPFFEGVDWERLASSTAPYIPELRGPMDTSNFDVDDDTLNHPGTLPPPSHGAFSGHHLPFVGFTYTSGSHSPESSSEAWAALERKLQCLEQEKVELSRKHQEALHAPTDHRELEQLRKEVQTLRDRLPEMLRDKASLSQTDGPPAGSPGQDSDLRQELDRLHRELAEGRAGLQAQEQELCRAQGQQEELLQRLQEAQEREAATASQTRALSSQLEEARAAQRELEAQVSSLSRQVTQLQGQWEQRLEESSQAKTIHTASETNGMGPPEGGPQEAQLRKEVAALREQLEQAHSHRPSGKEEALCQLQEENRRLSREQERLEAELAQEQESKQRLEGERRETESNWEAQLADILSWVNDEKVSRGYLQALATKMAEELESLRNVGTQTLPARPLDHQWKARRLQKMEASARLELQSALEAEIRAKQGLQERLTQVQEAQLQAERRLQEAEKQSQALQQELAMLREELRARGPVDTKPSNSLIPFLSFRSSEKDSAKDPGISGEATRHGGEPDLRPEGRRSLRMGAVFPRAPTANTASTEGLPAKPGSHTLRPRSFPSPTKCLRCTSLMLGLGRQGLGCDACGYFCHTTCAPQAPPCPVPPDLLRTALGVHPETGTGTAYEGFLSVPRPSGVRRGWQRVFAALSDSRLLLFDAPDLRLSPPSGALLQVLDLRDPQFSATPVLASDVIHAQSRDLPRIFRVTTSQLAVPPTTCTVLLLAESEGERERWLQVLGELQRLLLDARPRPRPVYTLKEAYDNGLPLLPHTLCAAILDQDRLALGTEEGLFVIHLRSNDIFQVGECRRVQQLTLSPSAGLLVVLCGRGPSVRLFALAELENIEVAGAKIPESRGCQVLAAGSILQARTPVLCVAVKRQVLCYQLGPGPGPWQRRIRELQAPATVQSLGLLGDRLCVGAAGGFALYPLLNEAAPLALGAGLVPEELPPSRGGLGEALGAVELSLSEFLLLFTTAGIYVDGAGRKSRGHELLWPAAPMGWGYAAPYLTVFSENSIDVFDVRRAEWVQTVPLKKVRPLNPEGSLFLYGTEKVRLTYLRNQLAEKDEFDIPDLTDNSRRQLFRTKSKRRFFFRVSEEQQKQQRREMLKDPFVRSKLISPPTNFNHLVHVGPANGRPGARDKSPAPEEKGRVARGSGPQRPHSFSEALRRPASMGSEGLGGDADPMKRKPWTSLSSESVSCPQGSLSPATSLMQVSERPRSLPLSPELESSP
Sequence of UniProt Q8NE63 (whole entry, looked up): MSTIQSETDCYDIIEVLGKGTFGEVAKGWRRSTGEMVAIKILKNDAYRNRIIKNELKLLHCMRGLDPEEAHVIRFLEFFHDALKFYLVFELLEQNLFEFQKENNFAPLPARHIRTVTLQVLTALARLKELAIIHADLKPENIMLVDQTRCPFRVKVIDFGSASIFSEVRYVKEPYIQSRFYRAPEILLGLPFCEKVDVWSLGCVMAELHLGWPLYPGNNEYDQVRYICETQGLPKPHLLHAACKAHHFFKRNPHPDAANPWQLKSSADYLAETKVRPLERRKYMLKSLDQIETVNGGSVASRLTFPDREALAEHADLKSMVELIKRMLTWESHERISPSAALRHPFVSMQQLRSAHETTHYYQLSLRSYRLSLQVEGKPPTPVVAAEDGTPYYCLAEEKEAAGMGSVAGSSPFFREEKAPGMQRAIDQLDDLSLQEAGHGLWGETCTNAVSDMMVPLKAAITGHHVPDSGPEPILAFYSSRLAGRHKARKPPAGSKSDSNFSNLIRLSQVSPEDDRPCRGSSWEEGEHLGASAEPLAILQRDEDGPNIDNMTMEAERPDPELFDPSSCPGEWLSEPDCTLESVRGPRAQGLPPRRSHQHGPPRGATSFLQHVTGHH
Sequence of UniProt Q9BQI3 (whole entry, looked up): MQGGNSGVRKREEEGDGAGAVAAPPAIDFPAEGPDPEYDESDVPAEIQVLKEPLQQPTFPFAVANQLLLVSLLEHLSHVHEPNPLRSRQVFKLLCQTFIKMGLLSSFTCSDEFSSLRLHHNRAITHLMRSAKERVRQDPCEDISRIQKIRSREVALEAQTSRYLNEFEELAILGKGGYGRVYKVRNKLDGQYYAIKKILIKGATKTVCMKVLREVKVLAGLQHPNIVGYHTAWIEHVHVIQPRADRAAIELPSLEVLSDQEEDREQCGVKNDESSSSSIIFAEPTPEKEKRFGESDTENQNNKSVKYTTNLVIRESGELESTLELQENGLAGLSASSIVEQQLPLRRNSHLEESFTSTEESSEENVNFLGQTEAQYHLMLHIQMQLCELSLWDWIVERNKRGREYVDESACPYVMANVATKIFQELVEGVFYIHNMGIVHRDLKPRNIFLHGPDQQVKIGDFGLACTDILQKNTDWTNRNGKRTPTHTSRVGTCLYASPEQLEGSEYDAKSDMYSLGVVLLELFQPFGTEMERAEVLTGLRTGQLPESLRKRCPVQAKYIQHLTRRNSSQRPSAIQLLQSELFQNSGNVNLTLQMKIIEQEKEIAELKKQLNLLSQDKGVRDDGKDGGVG

Sample 1 — technique: RNAcompete; form: RNA; matrix: in vitro; concentration: 20 nM; setting: 7-mer, probes averaged, single round; reference: mean of 7-mers; reading: higher = stronger binding; quantity: 7-mer Z-score
Target: PABPC1L2, full length, GST fusion (mouse, UniProt A0ABA7IW68)
Target sequence (chain): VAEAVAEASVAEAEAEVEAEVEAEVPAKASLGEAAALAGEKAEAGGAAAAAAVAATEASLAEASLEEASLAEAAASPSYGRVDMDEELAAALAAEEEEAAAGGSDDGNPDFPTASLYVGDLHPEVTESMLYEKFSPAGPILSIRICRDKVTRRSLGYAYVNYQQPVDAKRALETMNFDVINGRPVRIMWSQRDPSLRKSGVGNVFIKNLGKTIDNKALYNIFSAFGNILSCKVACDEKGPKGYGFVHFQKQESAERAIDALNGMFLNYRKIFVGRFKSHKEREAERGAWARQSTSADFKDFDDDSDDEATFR
Strand = AAGAGCA; value = 1.12
Strand = GACACCU; value = -0.193
Strand = ACUACAG; value = 0.0207
Strand = GUAACUA; value = -0.146
Strand = AUCGUGU; value = -0.106
Strand = UGUCGAC; value = -0.0391
Strand = AAUCAUU; value = -0.00833
Strand = CGUUCCU; value = -0.336

Sample 2 — concentration: 1 µM; quantity: remaining binding
SMILES: CNC(=O)Nc1ccc2c(c1)[C@@]1(CC2)OC(=O)N(CC(=O)N(Cc2ccc(F)cc2)[C@@H](C)C(F)(F)F)C1=O
target = IKBKB (Homo sapiens, UniProt O14920); observed = cell-free assay; technique = competition with immobilised ligand; value = 92%
target = EIF2AK1 (Homo sapiens, UniProt Q9BQI3); observed = cell-free assay; technique = competition with immobilised ligand; value = 96%
target = STK17A (Homo sapiens, UniProt Q9UEE5); observed = cell-free assay; technique = competition with immobilised ligand; value = 88%
target = LRRK2 (Homo sapiens, UniProt Q5S007); observed = cell-free assay; technique = competition with immobilised ligand; value = 71%
target = NUAK1 (Homo sapiens, UniProt O60285); observed = cell-free assay; technique = competition with immobilised ligand; value = 88%
target = CDC42BPG (Homo sapiens, UniProt Q6DT37); technique = competition binding; value = 88%
target = MYLK3 (Homo sapiens, UniProt Q32MK0); observed = cell-free assay; technique = competition with immobilised ligand; value = 85%
target = Tyrosine-protein kinase ABL1, phosphorylated (ABL1, Homo sapiens, UniProt P00519, H396P); observed = cell-free assay; technique = competition with immobilised ligand; value = 83%
target = MUSK (Homo sapiens, UniProt O15146); observed = cell-free assay; technique = competition with immobilised ligand; value = 100%
target = PRKCE (Homo sapiens, UniProt Q02156); observed = cell-free assay; technique = competition with immobilised ligand; value = 99%
target = CAMK2G (Homo sapiens, UniProt Q13555); observed = cell-free assay; technique = competition with immobilised ligand; value = 98%
target = HIPK4 (Homo sapiens, UniProt Q8NE63); observed = cell-free assay; technique = competition with immobilised ligand; value = 100%
target = GRK1 (Homo sapiens, UniProt Q15835); observed = cell-free assay; technique = competition with immobilised ligand; value = 73%

Sample 3 — technique: RNA Bind-n-Seq; form: RNA; matrix: in vitro; concentration: 20 nM; setting: 6-mer, flanks averaged, single round; together with: 150 mM LiCl; reference: input library; reading: higher = stronger binding; quantity: 6-mer enrichment (R)
Target: TAR DNA-binding protein 43, full length, His tag (TARDBP, Homo sapiens, UniProt Q13148, residues 1-414)
Strand = GGCGGG; value = 1.31
Strand = AGGUAA; value = 0.894
Strand = GGGUCG; value = 1.18
Strand = GGGCCA; value = 1.04
Strand = AAGAUU; value = 0.811
Strand = UUACAU; value = 0.921
Strand = CUCAAG; value = 0.811
Strand = CUGGCG; value = 0.974

Sample 4 — observed: enzyme activity; action: inhibitor; concentration: 0.5 µM; reference: control; quantity: remaining activity
Target: Protein kinase C epsilon type (PRKCE, Homo sapiens, UniProt Q02156)
Structure (SMILES) = Cc1nc(-c2ccccc2)c(-c2ccncc2)o1; value = 103%
Structure (SMILES) = COc1ccc(CNC(=O)Nc2ncc([N+](=O)[O-])s2)cc1; value = 92.4%
Structure (SMILES) = Cc1ccc(Nc2nccc(N(C)c3ccc4c(C)n(C)nc4c3)n2)cc1S(N)(=O)=O; value = 100%
Structure (SMILES) = O=C(Nc1cccc(Nc2cc(Nc3cccc(C(F)(F)F)c3)ncn2)c1)C1CC1; value = 89.2%
Structure (SMILES) = Nc1ccc2ncnc(NCCc3ccc(Oc4ccccc4)cc3)c2c1; value = 109%
Structure (SMILES) = NCCNc1ncc(C(N)=O)c(Nc2cccc(C(F)(F)F)c2)n1; value = 76.5%
Structure (SMILES) = COc1cc2nccc(Oc3ccc(NC(=S)NC(=O)c4ccccc4C)cc3)c2cc1OC; value = 99.7%
Structure (SMILES) = O=S(=O)(c1cccc2cnccc12)N1CCCNCC1; value = 76.5%
Structure (SMILES) = O=c1c2ccccc2[nH]c(=S)n1CCN1CCC(=C(c2ccc(F)cc2)c2ccc(F)cc2)CC1; value = 100%
Structure (SMILES) = O=C1NC(=O)C(c2cn(CCCO)c3ncccc23)=C1c1cnccn1; value = 102%
Structure (SMILES) = Cc1ccc(NC(=O)c2ccc(CN3CCN(C)CC3)cc2)cc1Nc1nc(-c2cccnc2)cs1; value = 100%
Structure (SMILES) = Nc1[nH]nc2nc3ccccc3nc12; value = 86.4%
Structure (SMILES) = CCOC(=O)c1c(C)[nH]c(/C=C2\C(=O)Nc3ccccc32)c1C; value = 98.2%
Structure (SMILES) = Cn1c2ccccc2c2c3c(c4c5ccccc5n(CCC#N)c4c21)CNC3=O; value = 58.5%
Structure (SMILES) = Nc1ncnc2n[nH]c(Nc3ccc(F)cc3)c12; value = 99.5%

A few entries again (sample 2):
target = CDC42BPG (Homo sapiens, UniProt Q6DT37); technique = competition binding; value = 88%
target = CAMK2G (Homo sapiens, UniProt Q13555); observed = cell-free assay; technique = competition with immobilised ligand; value = 98%
target = NUAK1 (Homo sapiens, UniProt O60285); observed = cell-free assay; technique = competition with immobilised ligand; value = 88%
target = STK17A (Homo sapiens, UniProt Q9UEE5); observed = cell-free assay; technique = competition with immobilised ligand; value = 88%
target = PRKCE (Homo sapiens, UniProt Q02156); observed = cell-free assay; technique = competition with immobilised ligand; value = 99%
target = GRK1 (Homo sapiens, UniProt Q15835); observed = cell-free assay; technique = competition with immobilised ligand; value = 73%
target = LRRK2 (Homo sapiens, UniProt Q5S007); observed = cell-free assay; technique = competition with immobilised ligand; value = 71%
